Measured values collected from several papers.
Each numbered part is a random draw from the data of one study; scales do not carry over between parts. Substitutions count along the parent as printed.

Block 1 — method: protein binding microarray; molecule type: double-stranded DNA, one strand shown; sample: in vitro; concentration: not given; reference: not given; direction: higher = stronger binding; endpoint: E-score
Target: Histone acetyltransferase KAT6A, winged helix 2, GST fusion (KAT6A, Homo sapiens, UniProt Q92794, residues 85-181)
Notes: 8-mer, flanks averaged, mean of 2 arrays, mostly near background
Construct (chain): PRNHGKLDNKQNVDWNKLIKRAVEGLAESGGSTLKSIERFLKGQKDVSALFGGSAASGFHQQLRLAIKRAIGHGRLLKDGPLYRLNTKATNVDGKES
ACAGGTCG: 0.00047
GTAAACAA: -0.055
ACCAGTAG: 0.00995
CGTGGTAG: -0.155
AAACCATC: 0.0426
CAGTGGGA: 0.0295
ATAAGAAC: 0.0296
CTGAGGTA: 0.0715
AAGCGGGC: -0.0541
GCAGAAGA: 0.0443
ACTGTGGG: -0.0265
AAAGTTTG: 0.0213
TAACCCGA: -0.051
AAGGGAAG: 0.00363
AGATAACT: -0.186
GTAAGTAC: -0.171
GCGCGAAC: 0.246
TAACTCCA: -0.0154

Block 2 — method: competition protein-binding microarray; molecule type: double-stranded DNA, one strand shown; sample: in vitro; concentration: 2 µM; added: Cbf1 competitor, 0.05 µM; direction: higher = stronger binding; endpoint: fluorescence intensity
Target: Phosphate system positive regulatory protein PHO4, full length, GST-tagged (PHO4, Saccharomyces cerevisiae, UniProt P07270, residues 1-312)
Notes: whole 60-bp probe, lowest competitor level
Target sequence (chain): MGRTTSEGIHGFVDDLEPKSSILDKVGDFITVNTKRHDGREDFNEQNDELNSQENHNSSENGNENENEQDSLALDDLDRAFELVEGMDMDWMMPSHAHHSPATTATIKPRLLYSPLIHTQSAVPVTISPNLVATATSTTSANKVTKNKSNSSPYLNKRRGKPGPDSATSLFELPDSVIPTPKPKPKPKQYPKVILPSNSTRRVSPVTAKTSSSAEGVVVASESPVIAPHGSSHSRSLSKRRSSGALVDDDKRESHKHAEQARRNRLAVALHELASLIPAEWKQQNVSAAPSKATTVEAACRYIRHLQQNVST
CGGGGTTAAGTTTGTTGAGTGGGTGGCTTGCAGCAGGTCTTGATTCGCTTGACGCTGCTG: 5120 a.u.
CGTCCTAGTGATTGCTCAGTGGGTGCCATGAGGAAGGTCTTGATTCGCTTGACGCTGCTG: 6520 a.u.
TAACATCGCATACATCATGTTTAGGAGGCTTGAACAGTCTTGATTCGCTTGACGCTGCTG: 6080 a.u.
AGGATCTCTTAGGAATTCGTGACGGGGTATCCCATTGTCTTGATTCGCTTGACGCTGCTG: 3660 a.u.
CGGGGTTAAGTTTGCCACGTGGGTGGCTTGCAGCAGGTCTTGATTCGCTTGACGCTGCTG: 17400 a.u.
CGCCGACGACGCCGACACGCACCGTTCTACTCGCTCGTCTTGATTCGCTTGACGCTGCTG: 6650 a.u.
CATGCCATAAGCCATCACCTGGCCAGTTGGCGTATGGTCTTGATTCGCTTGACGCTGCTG: 3990 a.u.
AAAGCGGTAATTTGATCTGTGGGTGCAGATATCTATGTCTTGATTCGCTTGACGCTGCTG: 3550 a.u.
CTAACGAAGGTTTGCGAAGTGGGTGACAAGCCAAGTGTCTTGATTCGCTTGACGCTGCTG: 3260 a.u.
TATGCTTTTCTTTTGAACGTGCAAAGCGCAGAGGCAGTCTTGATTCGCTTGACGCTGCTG: 10700 a.u.
AAAGCGGTAATTTGGACCGTGGGTGCAGATATCTATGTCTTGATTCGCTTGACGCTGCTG: 9140 a.u.
AAAGCGGTAATTTGGCACGTGGGTGCAGATATCTATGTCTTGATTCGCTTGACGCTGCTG: 21700 a.u.
GATGTAGATTACACTCTCATGACAATAAGCCACCCGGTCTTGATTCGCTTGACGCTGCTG: 3600 a.u.
CTTTCCCGATCTTGTCACACTACTTTAGCACATTTGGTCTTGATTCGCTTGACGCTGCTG: 4980 a.u.
AGGGGCCGTCCACCAAACGTGACTCGACGAGTTGACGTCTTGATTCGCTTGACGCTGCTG: 9080 a.u.
AACGCCGTCCGTAACCATATGATTCACAATTTGATCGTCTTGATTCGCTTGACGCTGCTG: 3800 a.u.
CGGAATTCCTGAACCGCCGTGACTCGGAGAATAAATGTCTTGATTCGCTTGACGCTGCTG: 3910 a.u.

Block 3 — target: NFIL3, bZIP domain (human); method: DHFR protein complementation; sample: yeast; reference: wild-type JUN-FOS pair; direction: higher = stronger binding; endpoint: binding fitness
Notes: single substitutions, most at no-binding floor
Starting sequence: JUN, bZIP domain (human); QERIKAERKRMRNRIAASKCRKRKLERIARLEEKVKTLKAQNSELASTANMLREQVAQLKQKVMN; partner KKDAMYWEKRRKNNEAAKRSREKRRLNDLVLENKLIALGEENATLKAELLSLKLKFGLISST
L52W: -1.54 natural log
Q55S: -1.47 natural log
E33T: -1.49 natural log
E54P: -1.41 natural log
M51H: -1.47 natural log
L31S: -1.46 natural log
K39F: -1.4 natural log
S47M: -1.5 natural log
Q41Y: -1.48 natural log
E54N: -1.46 natural log
A40S: -1.33 natural log
E33S: -1.49 natural log
K39M: -1.42 natural log
M51T: -1.34 natural log
A57E: -1.56 natural log
N42E: -1.41 natural log
N42P: -1.43 natural log
E33I: -1.54 natural log
S43E: -1.25 natural log
K36C: -1.52 natural log
S43M: -1.31 natural log

Block 4 — method: DHFR PCA, deep sequencing; sample: yeast; added: (+)-ABA 1.4 µM; reference: wild-type fitted maximum; direction: higher = stronger binding; endpoint: relative binding score
Target: ABI1, truncated, D143A, DHFR fusion (Arabidopsis thaliana)
Notes: methotrexate growth selection, single substitutions
Starting sequence: PYL1, truncated, DHFR fusion (Arabidopsis thaliana); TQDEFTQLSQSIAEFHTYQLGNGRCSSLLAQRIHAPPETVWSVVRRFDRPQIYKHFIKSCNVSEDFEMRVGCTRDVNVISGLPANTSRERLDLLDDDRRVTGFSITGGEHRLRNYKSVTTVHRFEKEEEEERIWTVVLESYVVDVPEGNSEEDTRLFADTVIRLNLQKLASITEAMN
E147T: 32%
Y18I: -11.4%
S42R: 42.5%
T173L: -2.32%
F5V: 59.8%
M176C: 29.3%
H110L: 8.65%
C25K: -24%
G81N: 14.5%
Q10T: 73.3%
V118P: -9.23%
E129C: 59.8%
M68T: 23.1%
E64F: 17.1%
K116G: -3.86%
R132Y: 44%
Q31T: 0.789%
S150R: 5.12%
H122C: -2.02%
L93T: 38.3%
T86I: 29.5%
S59V: 5.83%

Block 5 — target: CCNA2, cyclin fold, Cln2 fusion (human); method: yeast growth competition, sequencing; sample: yeast; notes: strong parent motif; reference: not given; direction: higher = stronger binding; endpoint: normalised enrichment score
Starting sequence: NPAT docking peptide (human); PCHRRVLCFDSTT; partner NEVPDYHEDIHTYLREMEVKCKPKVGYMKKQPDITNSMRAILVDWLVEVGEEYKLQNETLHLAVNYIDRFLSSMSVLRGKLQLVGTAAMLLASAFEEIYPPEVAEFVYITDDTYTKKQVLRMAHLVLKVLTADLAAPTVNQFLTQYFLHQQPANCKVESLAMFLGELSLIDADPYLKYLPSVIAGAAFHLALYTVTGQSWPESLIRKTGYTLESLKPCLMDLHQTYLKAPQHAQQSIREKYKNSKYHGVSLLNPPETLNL
PCHARVLCFDSTT [R4A]: 0.504
PCHRRVACFDSTT [L7A]: 0.136
PCHRKVLCFDSTT [R5K]: 0.849
PCHRRVLCLDSTT [F9L]: 0.186
PCHRRVLCFASTT [D10A]: 1.22
PCHRRVLCFDSTA [T13A]: 1.27
PAHRRVLCFDSTT [C2A]: 1.61
PCHRRVLCADSTT [F9A]: -0.158
PCHRRVLAFDSTT [C8A]: 1.15
PCHRAVACFDSTT [R5A L7A]: 0.112

Some of these lines once more (block 3):
S43E: -1.25 natural log
A40S: -1.33 natural log
Q55S: -1.47 natural log
E33I: -1.54 natural log
L31S: -1.46 natural log
Q41Y: -1.48 natural log
A57E: -1.56 natural log
M51T: -1.34 natural log
N42P: -1.43 natural log
N42E: -1.41 natural log
K39F: -1.4 natural log
S43M: -1.31 natural log
K39M: -1.42 natural log
